Experimental data gathered from unrelated publications.
Protocols differ between the studies behind these lines. Values joined by “and” are separate records of one study, mostly repeats; a detail may differ. Numbers after ± are the reported error.
STK32B: Serine/threonine-protein kinase 32B (STK32B, Homo sapiens, UniProt Q9NY57)

Compound	target	assay	test system	conditions	scale	quantity	value
COc1cccc(-n2nc3c4cc(Cl)ccc4[nH]cc-3c2=O)c1	Gamma-aminobutyric acid receptor subunit alpha-6/beta-3, with delta subunit (Gabra6/Gabrb3, Rattus norvegicus, UniProt P30191+P63079)	ion current, modulator, two-electrode voltage clamp		1 nM, α6β3δ receptor, together with: GABA EC3-10		efficacy	103 ± 4.7%
CC[C@H](C)[C@H](NC(=O)[C@H](Cc1ccccc1)NC(=O)[C@H](CCC(=O)O)NC(=O)[C@H](CCCNC(=N)N)NC(=O)[C@H](C)NC(=O)[C@H](C)NC(=O)[C@H](CCC(N)=O)NC(=O)[C@H](CCC(=O)O)NC(=O)[C@H](CCC(=O)O)NC(=O)[C@H](CC(C)C)NC(=O)[C@H](Cc1ccc(O)cc1)NC(=O)[C@H](CO)NC(=O)[C@H](CO)NC(=O)[C@@H](NC(=O)[C@H](CC(=O)O)NC(=O)[C@H](CO)NC(=O)[C@@H](NC(=O)[C@H](Cc1ccccc1)NC(=O)[C@@H](NC(=O)CNC(=O)[C@H](CCC(=O)O)NC(=O)[C@H](C)NC(=O)CCc1cnc[nH]1)[C@@H](C)O)[C@@H](C)O)C(C)C)C(=O)N[C@@H](C)C(=O)N[C@@H](Cc1c[nH]c2ccccc12)C(=O)N[C@@H](CC(C)C)C(=O)N[C@H](C(=O)N[C@@H](CCCCNc1c(NCCCCCN(O)C(=O)CCC(=O)NCCCCCN(O)C(=O)CCC(=O)NCCCCCN(O)C(C)=O)c(=O)c1=O)C(=O)NCC(=O)N[C@@H](CCCNC(=N)N)C(=O)N[C@@H](CCCCNc1c(NCCCCCN(O)C(=O)CCC(=O)NCCCCCN(O)C(=O)CCC(=O)NCCCCCN(O)C(C)=O)c(=O)c1=O)C(=O)NCC(=O)NCC(=O)N[C@@H](CO)C(=O)N[C@@H](CCCCNC(=O)COCCOCCNC(=O)COCCOCCNC(=O)CC[C@H](NC(=O)CCCCCCCCCCCCCCCCC(=O)O)C(=O)O)C(=O)O)C(C)C	Glucagon-like peptide 1 receptor (GLP1R, Homo sapiens, UniProt P43220)	agonist, CRE luciferase reporter	BHK cells	Zr-loaded DFO conjugate, together with: 0% HSA	relative to: parent peptide	fold potency loss	3.6
O=c1nc(SCc2cc(F)cc(C(F)(F)F)c2)nc(SCc2ccc3nc(Cl)ccc3c2)[nH]1	DNA topoisomerase 2-alpha (TOP2A, Homo sapiens, UniProt P11388)	DNA relaxation		7.8 µM, replicate 1		relaxed DNA	99.5%
Nc1nc2c(ncn2[C@@H]2O[C@H](COP(=O)(O)O)[C@@H](O)[C@H]2O)c(=O)[nH]1	GUK1 (Homo sapiens, UniProt Q16774, R41A)	enzyme activity, NADH-coupled		7.812 µM		reaction rate	0.288 s⁻¹ and 0.537 s⁻¹ and -0.0584 s⁻¹
C=CC(=O)N1CCC(COCC(=O)N2CCN(c3nc(-c4cnc(N)nc4C(F)F)nc(N4CCOC[C@@H]4C)n3)CC2)CC1	STK32B	KINOMEscan		1 µM		remaining binding	100%
C[C@@H]1CCO[C@H]2Cn3cc(C(=O)NCc4ccc(F)cc4F)c(=O)c(O)c3C(=O)N12	Solute carrier family 22 member 3 (SLC22A3, Homo sapiens, UniProt O75751)	transport	MDCK-II, transfected	1 µM, together with: MPP+ 2 µM		inhibition	12.5%
C=CC(=O)N1CCC(C(=O)NCC(=O)N2CCN(c3nc(-c4cnc(N)nc4C(F)F)nc(N4CCOCC4)n3)CC2)CC1	STK32B	KINOMEscan		1 µM		remaining binding	93%
[H]/N=C(/N)NCC(=O)O	Sodium- and chloride-dependent taurine transporter (SLC6A6, Homo sapiens, UniProt P31641, Y138A)	binding, microscale thermophoresis		1 mM, room temperature, together with: 50 nM labelled protein	higher = more binding	normalised MST signal	-0.0457
C#Cc1cc(-c2cc(Nc3nc(N[C@@H](C)c4ccc(F)cn4)ncc3Cl)n[nH]2)ccc1C=O	High affinity nerve growth factor receptor (NTRK1, Homo sapiens, UniProt P04629, G667S)	enzyme activity, inhibitor		0.2 µM		inhibition	101%
Cc1cccc(N2CC(C(=O)O)CC2=O)c1 (stereo not shown)	Transcription intermediary factor 1-alpha, PHD-bromodomain (TRIM24, Homo sapiens, UniProt O15164)	binding, affinity selection mass spectrometry			relative to: other proteins in batch	log fold enrichment	0.0794

A few entries again:
Compound	target	assay	test system	conditions	scale	quantity	value
COc1cccc(-n2nc3c4cc(Cl)ccc4[nH]cc-3c2=O)c1	Gamma-aminobutyric acid receptor subunit alpha-6/beta-3, with delta subunit (Gabra6/Gabrb3, Rattus norvegicus, UniProt P30191+P63079)	ion current, modulator, two-electrode voltage clamp		1 nM, α6β3δ receptor, together with: GABA EC3-10		efficacy	103 ± 4.7%
